Published values from different studies.
Values joined by “and” are separate records of one study, mostly repeats; a detail may differ. ± gives the spread as reported.

The Hill coefficient of `COc1cc2nccc(Oc3ccc(NC(=O)NC4CC4)c(Cl)c3)c2cc1C(N)=O` is reported as 0.313 (refers to: Tie-2; human, serum; PK/PD model, point estimate).
`CC#Cc1cncc(-c2ccc3c(c2)[C@@]2(N=C(C)C(N)=N2)[C@]2(CC[C@H](OC)CC2)C3)c1` has a maximum reduction of 90% (refers to: Aβ42; Dunkin-Hartley guinea pigs, CSF; oral, dose not given, 8 h).
`C[C@H](Oc1ccc(Br)cc1-c1ccon1)C(=O)O` — result for “mean CMAP amplitude difference”: -0.1 mV (muscle velocity recovery cycles; human, tibialis anterior muscle; 400 mg twice daily; reference: placebo).
`COc1cc(/C=C/C(=O)CC(=O)/C=C/c2ccc(O)c(OC)c2)ccc1O` gave a plasma TC of 4.04 ± 0.42 mmol/L (high-fat diet hyperlipidaemic rat; oral, 200 mg/kg daily, 4 weeks).
`Cn1cc([C@H]2C[C@H]3CSC(N)=N[C@@]3(c3ccc(F)cc3F)CO2)cn1` — result for “brain Aβ40 level”: 3.01 ng/g (refers to: Aβx-40; wild-type mouse, brain; subcutaneous, 10 mg/kg, 9 h).
For `O=C(OC(C(F)(F)F)C(F)(F)F)N1CCN(Cc2cccc(Oc3ccccc3)c2)CC1`, the k4 was 0.109 min⁻¹ (PET blocking study; rhesus monkey, brain OCC; 0.01 mg/kg, compound pretreatment, together with: [18F]T-401 tracer).
`OC(CCN1CCCCC1)(c1ccccc1)C1CC2C=CC1C2` (stereo not shown): “EEG power, delta, Fz-Cz” 9.7 µV² (resting-state EEG; healthy elderly humans; oral, 4 mg, eyes open, LS mean).
Under “log2 fold change”, `c1ccc(-c2n[nH]cc2-c2ccnc3ccccc23)nc1` is recorded as 1.46 (kinase binding, competitor, MIB/MS competition, refers to: TPK2; Candida albicans cell lysate; 1 µM; reference: DMSO).
`C=CCn1c(=O)c2cnc(Nc3ccc(N4CCN(C)CC4)cc3)nc2n1-c1ccc2c(n1)[C@@](O)(CC)CC2` — result for “tumour volume difference”: 174 ± 10.5 mm3 (MDA-MB-468 xenograft, CB17 SCID mice; oral, 80 mg/kg, day 56, once daily x 56).
`[177Lu+3].[Cl-].[Cl-].[Cl-]` has a positive cells of 4.86 ± 0.65% (immunohistochemistry, refers to: mature activated macrophages; BALB/c mice, 4T1 tumour; dose not given, 7 days, 4T1 tumour-bearing).
`CC(C)NCC(O)c1ccc(O)c(O)c1` (stereo not shown) has a sarcomere length of 1.51 µm (ventricular cardiomyocytes, C57BL/6 mouse; dose not given, 0.224 s).
For `N=C(N)NCCC[C@H](NC(=O)[C@H](CCCNC(=N)N)NC(=O)[C@H](CCCCN)NC(=O)[C@H](CCC(N)=O)NC(=O)[C@H](CCCCN)NC(=O)[C@H](Cc1ccc(O)cc1)NC(=O)[C@@H](N)CCCCN)C(=O)N[C@@H](CO)C(=O)N[C@@H](Cc1ccc(O)cc1)C(=O)N[C@@H](CCCCN)C(=O)O`, “tactile threshold change” read -1 ± 0.89 (dentin hypersensitivity patients; 10 µg/tooth single, day 22, unit not given; reference: baseline).
For `CC(C)c1c(C(=O)Nc2ccccc2)c(-c2ccccc2)c(-c2ccc(F)cc2)n1CC[C@@H](O)C[C@@H](O)CC(=O)O`, “serum lipid change” read “no effect” (refers to: triglycerides, HDL-C, LDL-C, total cholesterol; cynomolgus monkeys; dose not given, day 86, compound given alone).
`CCCCCN1C[C@H](O)[C@@H](O)[C@H](O)[C@@H]1CO` — result for “number of increased sphingolipids”: 12 (mouse Hexb-/-, cerebral cortex; 300 mg/kg/day; reference: untreated Hexb-/- mice).
Under “pS6RP change from baseline”, `CO[C@H]1CC[C@H](N2C(=O)CNc3ncc(-c4ccc(C(C)(C)O)nc4)nc32)CC1` is recorded as -76.6% (flow cytometry; stimulated B cells, human, blood; 60 mg single dose, 3 h, median; reference: baseline).
`Cc1cnc(N2CC3(CCOCC3)C2)c(C(=O)Nc2ccc(C(=O)N3CCc4cc(C(=O)Nc5c(C)cccc5F)sc4-c4ccccc43)cc2)c1` — result for “inhibition of CXCL8 AUC”: 31% (human, RSV infection, nasal wash; dose not given, ITT-I population; reference: placebo).
For `CC1(C)CCC(c2ccc(Cl)cc2)=C(CN2CCN(c3ccc(C(=O)NS(=O)(=O)c4ccc(N[C@H](CCN5CCOCC5)CSc5ccccc5)c(S(=O)(=O)C(F)(F)F)c4)cc3)CC2)C1`, the EC50 was 31 nM (cell killing; primary canine neoplastic T cells, dog 19; 24 h).
`Cn1cc(Nc2nccc(-c3ccc4c(c3)CN(C3COC3)CC[C@H]4NC(=O)c3cn(C(C)(C)C)nn3)n2)cn1`: “pathway activation z-score” -2.24 (refers to: folate transformations I; splenic B cells, mice; 30 mg/kg, IgD-activated in vivo; reference: vehicle, direction not given).
For `O=c1c(NCCc2cccc(Cl)c2)c(Nc2ccc(Cl)cc2)c1=O`, “inactive lever presses” read “no effect” (cue-induced reinstatement after extinction; rat, cocaine self-administration; i.p., 5.6 mg/kg).
Under “change in stool frequency”, `Cc1cc(Nc2cc3ncccc3c(N[C@@H]3C[C@H]4CC[C@@H](C3)N4CCC#N)n2)n[nH]1` is recorded as -0.3 (moderate-severe ulcerative colitis patients; 20 mg, day 28, Mayo subscore, unit not given; reference: baseline).
For `N#Cc1ccc2c(-c3ccncc3)c(-c3ccc(F)cc3)nn2c1`, “log2 fold change” read -0.169 (kinase binding, competitor, MIB/MS competition, refers to: SAK1; Candida albicans cell lysate; 10 µM; reference: DMSO).
Under “PNH RBC clone size”, `CCO[C@H]1CCN(Cc2c(OC)cc(C)c3[nH]ccc23)[C@H](c2ccc(C(=O)O)cc2)C1` is recorded as 643% (PNH patients, blood; oral, 50 mg then 200 mg, week 12, mean percent change; reference: baseline).
`Cc1nn(-c2nc3c(F)cc(F)cc3s2)c(O)c1C(c1ccc(C(F)(F)F)cc1)c1c(C)nn(-c2nc3c(F)cc(F)cc3s2)c1O` — result for “pancreas to body weight ratio”: 8.54 mg/g and 10.9 mg/g and 11.9 mg/g and 13.5 mg/g and 12.2 mg/g (mouse, cerulein-induced acute pancreatitis; 25 mg/kg).
The hazard ratio of `O=C1CCc2ccc(OCCCCN3CCN(c4cccc(Cl)c4Cl)CC3)cc2N1` is reported as 1.92 (refers to: stopping or switching; patients CYP2D6 extreme phenotypes; dose not given, 12 months; reference: IM versus NM).
With `NC/C(=C\F)COc1cccc(Cn2c(=S)[nH]c(=O)c3[nH]cnc32)c1` the leukocyte count was 1.2e+07 and 420000 and 2e+07 and 840000 and 6.2e+06 and 3.2e+06 (leukocyte infiltration; mouse, carrageenan air pouch, pouch exudate; 30 mg/kg, 4 h).
`CC(C)[C@H](C(=O)Nc1ccc(C(=O)NO)cc1)c1ccccc1`: “tumour volume change” 104% (volumetric MRI; human, right meningioma; dose not given, day 133; reference: baseline).
Under “complete response, best response”, `O=C1Nc2cc3[nH]nc(-c4ccncc4)c3cc2CN1Cc1ccccc1` is recorded as 0% (RECIST v1.1; human, relapsed or refractory advanced solid tumours; intravenous, 9.6 mg/kg, pooled schedules).
Under “seminal fluid volume”, `CCOC(=O)n1ccn(C)c1=S` is recorded as “increased” (hyperthyroid men; dose not given, 6 months; reference: baseline).
`COc1ncc(-c2nc3c(n2C(C)C)[C@H](c2ccc(Cl)cc2)N(c2cc(Cl)cn(C)c2=O)C3=O)c(OC)n1` — result for “best overall response”: 59.3% (International Working Group criteria; human acute myeloid leukemia patients; oral, 45 mg, response TF, low-dose, recommended dose for expansion).
The inhibition of `CN[C@@H]1COc2c(S(=O)(=O)NC(=O)Nc3c4c(cc5c3CCC5)CCC4)cnn2C1` is reported as 99.1% (refers to: IL-18; human participants, whole blood ex vivo; 900 mg single dose, 1 h, IL-18, circulating, adjusted for, together with: LPS/ATP; reference: baseline).
`Cc1sc2c(c1C)C(c1ccc(Cl)cc1)=N[C@@H](CC(=O)NCCCCCCCCNC(=O)COc1cccc3c1C(=O)N(C1CCC(=O)NC1=O)C3=O)c1nnc(C)n1-2` (stereo partly shown) — result for “CD8+ T cells”: 15.5% and 17.2% and 17.4% and 14% (flow cytometry; 4T1 tumour-bearing mice, lymph nodes; dose not given).
For `N#Cc1ccn2c(-c3ccncc3)c(-c3ccc(F)cc3)nc2c1`, “log2 fold change” read -0.327 (kinase binding, competitor, MIB/MS competition, refers to: ATG1; Candida albicans cell lysate; 10 µM; reference: DMSO).
`NC(=O)c1cnc2[nH]ccc2c1N[C@@H]1[C@@H]2CC3C[C@H]1C[C@@](O)(C3)C2`: “regulatory T-cell change” -1.27% (flow cytometry; Japanese healthy men, blood; oral, 10 mg twice daily, 72 h after day 7 dose; reference: baseline).
`C[C@]12CC[C@@H]3c4ccc(O)cc4CC[C@H]3[C@@H]1CC[C@@H]2O` gave a mRNA level of 0.051 (RT-qPCR, refers to: CO; Arabidopsis thaliana ING1:FLAG seedlings; 20 µM, 4 h after treatment, replicate rep3, unit not given; reference: TUB2).
With `CCCCC1(CCCC)CN(c2ccccc2)c2cc(SC)c(OCC(=O)N[C@@H](C(=O)NCC(=O)O)c3ccccc3)cc2S(=O)(=O)C1` the plasma C4 was 69.1 ng/mL (refers to: 7α-hydroxy-4-cholesten-3-one; human, plasma; 20 mg once daily, day 13).
For `N#Cc1ccc2c(c1)[C@H]1CCCN(C(=O)c3ccc4[nH]cnc4c3)[C@H]1C2`, “change from baseline” read 4.3 pmol/L (refers to: ACTH; human, Phase II trial; oral, 20 mg once daily, HPA axis, mean).
With `COc1ccc(-c2cncc(N[C@@H](C)c3cccc(NC(=O)c4cncc(C)c4)c3)n2)cc1OC` the fold change was 0.696 (refers to: rno-miR-211-5p; rat SU5416/hypoxia model, lung; dose not given; reference: SU5416/hypoxia vehicle).
`O=C(O)CNC(=O)Cc1ccccc1` gave a sarcomere length of 1.63 µm (ventricular cardiomyocytes, C57BL/6 mouse; dose not given, 0.508 s).
Under “patients with IPA above threshold”, `CC(=O)Oc1cc2c(s1)CCN(C(C(=O)C1CC1)c1ccccc1F)C2` (stereo not shown) is recorded as 0% (platelet aggregation, light transmittance aggregometry; human, platelet-rich plasma; 15 min, IPA above 90 %, together with: TRAP 15 µM; reference: patients).
With `COc1ccc(C2=N[C@@H](c3ccc(Cl)cc3)[C@@H](c3ccc(Cl)cc3)N2C(=O)N2CCNC(=O)C2)c(OC(C)C)c1` the necrotic area was 8.8% and 8.6% and 11.9% and 7.1% and 13.2% (histology; Dmd C3333Y mice, tibialis anterior; dose not given).
Under “mean fold change”, `CCN(Cc1nc2c(N)nc3cc(-c4cc[nH]n4)ccc3c2[nH]1)C(C)=O` is recorded as 1.5 (immunohistochemistry, refers to: PD-L1+ immune cells; patients with advanced solid tumours, injected tumour lesions; dose not given, monotherapy; reference: baseline).
`CC[C@@H]1[C@H](F)C(=O)N[C@@H]1COc1nccc2cc(C(N)=O)c(OC)cc12` gave an inhibition of -4.9% (ATP-site probe binding, ActivX profiling, refers to: MST4, YSK1; THP-1 cell lysate; 0.2 mM, Lys2 site).
For `C[C@H]1C[C@H]2CSC(N)=N[C@@]2(c2nc(NC(=O)c3ccc(OC(F)F)cn3)cs2)CO1`, “percent change from baseline” read -57.4% (refers to: total Aβ; healthy adults, plasma; 160 mg single dose, 8 h post-dose; reference: placebo).
With `O=C(O)CCC(=O)O.[2H]C([2H])([2H])Oc1cc(C)c2[nH]ccc2c1CN1CC[C@@H](C2CC2)C[C@H]1c1ccc(C(=O)O)cc1` the inhibition was greater than 80% (alternative complement pathway activity, Wieslab ELISA; healthy humans, most subjects, serum; 50 mg twice daily, trough, multiple doses).
Under “log2 fold change”, `Cc1n[nH]c2ccc(-c3cc(OC[C@@H](N)Cc4ccccc4)cnc3-c3ccoc3)cc12` is recorded as -0.0877 (kinase binding, competitor, MIB/MS competition, refers to: IRE1; Candida albicans cell lysate; 10 µM; reference: DMSO).
`CC(C)n1c(C2CCNCC2)nc2c([N+](=O)[O-])c(Br)c(Br)cc21` — result for “maximum change from baseline”: 279% (refers to: blasts; AML patients IDH mutated, bone marrow; dose not given, all doses).

Repeated from above:
For `N#Cc1ccc2c(-c3ccncc3)c(-c3ccc(F)cc3)nn2c1`, “log2 fold change” read -0.169 (kinase binding, competitor, MIB/MS competition, refers to: SAK1; Candida albicans cell lysate; 10 µM; reference: DMSO).
Under “PNH RBC clone size”, `CCO[C@H]1CCN(Cc2c(OC)cc(C)c3[nH]ccc23)[C@H](c2ccc(C(=O)O)cc2)C1` is recorded as 643% (PNH patients, blood; oral, 50 mg then 200 mg, week 12, mean percent change; reference: baseline).
`Cc1nn(-c2nc3c(F)cc(F)cc3s2)c(O)c1C(c1ccc(C(F)(F)F)cc1)c1c(C)nn(-c2nc3c(F)cc(F)cc3s2)c1O` — result for “pancreas to body weight ratio”: 8.54 mg/g and 10.9 mg/g and 11.9 mg/g and 13.5 mg/g and 12.2 mg/g (mouse, cerulein-induced acute pancreatitis; 25 mg/kg).
The hazard ratio of `O=C1CCc2ccc(OCCCCN3CCN(c4cccc(Cl)c4Cl)CC3)cc2N1` is reported as 1.92 (refers to: stopping or switching; patients CYP2D6 extreme phenotypes; dose not given, 12 months; reference: IM versus NM).
With `NC/C(=C\F)COc1cccc(Cn2c(=S)[nH]c(=O)c3[nH]cnc32)c1` the leukocyte count was 1.2e+07 and 420000 and 2e+07 and 840000 and 6.2e+06 and 3.2e+06 (leukocyte infiltration; mouse, carrageenan air pouch, pouch exudate; 30 mg/kg, 4 h).
`CC(C)[C@H](C(=O)Nc1ccc(C(=O)NO)cc1)c1ccccc1`: “tumour volume change” 104% (volumetric MRI; human, right meningioma; dose not given, day 133; reference: baseline).
